Assay results from different studies.
Compare with care: the assays were run in different laboratories. ± marks the error that the study gave.

Substance | tested on | test | test system | conditions | measurement | result
CC(C)(C)C(=O)Oc1ccc(S(=O)(=O)Nc2ccccc2C(=O)NCC(=O)O)cc1 | Replicase polyprotein 1ab, main protease (rep, Severe acute respiratory syndrome coronavirus 2, UniProt P0DTD1) | reporter gene (mKate2), inhibitor |  | 20 µM | inhibition | 0.0333%
IQWMVMFTPLVPFWI | human CD4 T cells | AIM | peptide |  | responding donors | 8%
CC[C@H](C)[C@H](NC(=O)[C@H](CC(C)C)NC(=O)[C@H](Cc1c[nH]c2ccccc12)NC(=O)[C@H](CCC(N)=O)NC(=O)[C@@H](NC(=O)[C@H](Cc1ccccc1)NC(=O)[C@H](C)NC(=O)[C@H](CCCCNC(=O)COCCOCCNC(=O)COCCOCCNC(=O)CC[C@H](NC(=O)CCCCCCCCCCCCCCCCCCC(=O)O)C(=O)O)NC(=O)[C@H](CCC(N)=O)NC(=O)[C@H](C)NC(=O)[C@@H](NC(=O)[C@H](CCCCN)NC(=O)[C@H](CC(=O)O)NC(=O)[C@H](CC(C)C)NC(=O)C(C)(C)NC(=O)[C@@H](NC(=O)[C@H](CO)NC(=O)[C@H](Cc1ccc(O)cc1)NC(=O)[C@H](CC(=O)O)NC(=O)[C@H](CO)NC(=O)[C@@H](NC(=O)[C@H](Cc1ccccc1)NC(=O)[C@@H](NC(=O)CNC(=O)[C@H](CCC(=O)O)NC(=O)C(C)(C)NC(=O)[C@@H](N)Cc1ccc(O)cc1)[C@@H](C)O)[C@@H](C)O)[C@@H](C)CC)[C@@H](C)CC)C(C)C)C(=O)N[C@@H](C)C(=O)NCC(=O)NCC(=O)N1CCC[C@H]1C(=O)N[C@@H](CO)C(=O)N[C@@H](CO)C(=O)NCC(=O)N[C@@H](C)C(=O)N1CCC[C@H]1C(=O)N1CCC[C@H]1C(=O)N1CCC[C@H]1C(=O)N[C@@H](CO)C(N)=O |  |  | healthy subjects, single ascending dose | 8.0 mg, baseline | serum lipase | 38.1 ± 19.4 U/L
Nc1ncnc2c([C@@H]3N[C@H](CO)[C@@H](O)[C@H]3O)c[nH]c12 | Zaire ebolavirus | antibody staining | HeLa, Kikwit | 25 µM | antigen-positive cells | 2.8%
SDVLYQPPQTSITSA | human CD4 T cells | AIM | peptide |  | responding donors | 8%

For quick reference, copied from above:
Substance | tested on | test | test system | conditions | measurement | result
CC(C)(C)C(=O)Oc1ccc(S(=O)(=O)Nc2ccccc2C(=O)NCC(=O)O)cc1 | Replicase polyprotein 1ab, main protease (rep, Severe acute respiratory syndrome coronavirus 2, UniProt P0DTD1) | reporter gene (mKate2), inhibitor |  | 20 µM | inhibition | 0.0333%
